# Measurements gathered from unrelated publications.
# Compare with care: the assays were run in different laboratories. ± marks the error that the study gave.
Structure (SMILES),cell line,assay,setting,IC50
CC[C@H](C)[C@@H]1NC(=O)[C@H](CCCNC(=N)N)NC(=O)C[C@@H](c2cccc3ccccc23)NC(=O)[C@@H]2CSSC[C@H](NC(=O)C[C@@H](c3cccc4ccccc34)NC(=O)[C@H](CCCNC(=N)N)NC(=O)[C@@H]3CCCN3C(=O)[C@@H]3CCCN3C1=O)C(=O)N[C@@H](Cc1ccccc1)C(=O)N1CCC[C@H]1C(=O)N[C@@H](CC(=O)O)C(=O)N[C@@H](CC(=O)O)C(=O)N[C@@H](Cc1ccccc1)C(=O)N2,HLF,"cell growth or viability, ATP luminescence",,> 100 µM
CCC(C)C1OC(=O)C(NC(=O)c2cccc(NC=O)c2O)C(C)OC(=O)C(C(C)CC)OC(=O)C(C)(C)C(=O)C(Cc2ccccc2)OC1=O (stereo not drawn),SGC-7901/DDP cisplatin-resistant,"cell viability, CCK-8",72 h,0.0017 ± 0.0002 µM
CSCC[C@H](N)C(=O)N[C@@H](C)C(=O)N[C@@H](Cc1c[nH]c2ccccc12)C(=O)N[C@@H](Cc1c[nH]cn1)C(=O)N[C@@H](CC(=O)O)C(=O)N[C@@H](CC(=O)O)C(=O)N[C@@H](CCC(=O)O)C(=O)N[C@@H](CCC(=O)O)C(=O)N[C@@H](Cc1ccccc1)C(=O)N[C@@H](C)C(=O)N[C@@H](CCCNC(=N)N)C(=O)N[C@@H](CCCNC(=N)N)C(=O)N[C@@H](CCCNC(=N)N)C(=O)N[C@@H](CCCNC(=N)N)C(=O)NCCCCCC(=O)NCCCCC(NC(=O)CCCCCNC(=O)[C@H](CCCNC(=N)N)NC(=O)[C@H](CCCNC(=N)N)NC(=O)[C@H](CCCNC(=N)N)NC(=O)[C@H](CCCNC(=N)N)NC(=O)[C@H](C)NC(=O)[C@H](Cc1ccccc1)NC(=O)[C@H](CCC(=O)O)NC(=O)[C@H](CCC(=O)O)NC(=O)[C@H](CC(=O)O)NC(=O)[C@H](CC(=O)O)NC(=O)[C@H](Cc1c[nH]cn1)NC(=O)[C@H](Cc1c[nH]c2ccccc12)NC(=O)[C@H](C)NC(=O)[C@@H](N)CCSC)C(=O)NCCCCC(NC(=O)C(CCCCNC(=O)CCCCCNC(=O)[C@H](CCCNC(=N)N)NC(=O)[C@H](CCCNC(=N)N)NC(=O)[C@H](CCCNC(=N)N)NC(=O)[C@H](CCCNC(=N)N)NC(=O)[C@H](C)NC(=O)[C@H](Cc1ccccc1)NC(=O)[C@H](CCC(=O)O)NC(=O)[C@H](CCC(=O)O)NC(=O)[C@H](CC(=O)O)NC(=O)[C@H](CC(=O)O)NC(=O)[C@H](Cc1c[nH]cn1)NC(=O)[C@H](Cc1c[nH]c2ccccc12)NC(=O)[C@H](C)NC(=O)[C@@H](N)CCSC)NC(=O)CCCCCNC(=O)[C@H](CCCNC(=N)N)NC(=O)[C@H](CCCNC(=N)N)NC(=O)[C@H](CCCNC(=N)N)NC(=O)[C@H](CCCNC(=N)N)NC(=O)[C@H](C)NC(=O)[C@H](Cc1ccccc1)NC(=O)[C@H](CCC(=O)O)NC(=O)[C@H](CCC(=O)O)NC(=O)[C@H](CC(=O)O)NC(=O)[C@H](CC(=O)O)NC(=O)[C@H](Cc1c[nH]cn1)NC(=O)[C@H](Cc1c[nH]c2ccccc12)NC(=O)[C@H](C)NC(=O)[C@@H](N)CCSC)C(N)=O (stereo partly drawn),BMMs from C57BL/6 mice,osteoclast differentiation,"3 days, added: RANKL",0.14 µM
CC(N)C(O)CCCCCCCCCCCCCCC(=O)CCCCCCCC(O)C(C)N (stereo not drawn),HCC70,"cell growth or viability, resazurin",96 h,47 µM
Cc1cc(C)c(N2CCN(c3c(C)cc(C)cc3C)C2=[Se])c(C)c1.[Cl][Au],LoVo-OXP (oxaliplatin-resistant),MTT,72 h,2.5 ± 0.5 µM
Cc1cc(C)c(-n2c[n+](-c3c(C)cc(C)cc3C)c3c2-c2cccc4cccc-3c24)c(C)c1.[Cl][Pd-]([Cl])[CH2]C=Cc1ccccc1,PSN1,"cell growth or viability, MTT",72 h,5 µM
O=C(Cc1ccc2ccccc2c1)N[C@H](Cc1ccccc1)C(=O)N[C@H](Cc1ccccc1)C(=O)N[C@H](Cc1ccc(O)cc1)C(=O)N[C@H](Cc1ccc(OP(=O)(O)O)cc1)C(=O)O,SAOS-2,"cell growth or viability, MTT",,170 µg/mL
COc1ccc(C(c2c(C)nn(-c3ccccc3)c2O)c2c(C)nn(-c3ccccc3)c2O)cc1OC,Ishikawa,"cell growth or viability, MTT",48 h,> 40 µM
C[C@H]1C(OCCCCCCCCC[P+](c2ccccc2)(c2ccccc2)c2ccccc2)O[C@@H]2O[C@@]3(C)CCC4[C@H](C)CCC1[C@]42OO3 (stereo partly drawn),OVCAR-3,"cell growth or viability, MTT",72 h,0.0956 µM
CN(C)C(=O)c1cncc(N2Cc3cnn(Cc4ccc(F)cc4)c3C2)n1,HEK293 expressing GluA1 and GluA2,"cell death, CellTox Green","24 h, added: glutamate, AMPA 10 µM",0.2 µM
CC[C@H](C)[C@H](NC(=O)[C@H](CCCCN)NC(=O)[C@@H](NC(=O)[C@H](CCC(N)=O)NC(=O)[C@@H](N)CCCNC(=N)N)[C@@H](C)CC)C(=O)N[C@@H](Cc1c[nH]c2ccccc12)C(=O)N[C@@H](Cc1ccccc1)C(=O)N[C@@H](CCC(N)=O)C(=O)N[C@@H](CC(N)=O)C(=O)N[C@@H](CCCNC(=N)N)C(=O)N[C@@H](CCCNC(=N)N)C(=O)N[C@@H](CCSC)C(=O)N[C@@H](CCCCN)C(=O)N[C@@H](Cc1c[nH]c2ccccc12)C(=O)N[C@@H](CCCCN)C(=O)N[C@@H](CCCCN)C(=O)N[C@@H](CO)C(=O)N[C@@H](Cc1c[nH]c2ccccc12)C(=O)N[C@H](C(=O)N[C@@H](Cc1c[nH]c2ccccc12)C(=O)N[C@@H](CCC(=O)O)C(=O)N[C@@H](CCCCN)C(=O)N[C@@H](CCCCN)C(=O)N[C@@H](CC(C)C)C(=O)N[C@@H](CCC(=O)O)C(=O)N[C@H](C(=O)N[C@@H](C)C(=O)N[C@H](C(=O)N[C@@H](CC(N)=O)C(=O)N[C@@H](CC(C)C)C(=O)N[C@@H](C)C(=O)N[C@@H](Cc1c[nH]c2ccccc12)C(=O)N[C@H](C(=O)N[C@@H](C)C(=O)NCC(=O)N[C@@H](CC(N)=O)C(=O)N[C@@H](CO)C(=O)N[C@@H](CC(N)=O)C(=O)N[C@@H](CCCCN)C(=O)N[C@@H](Cc1c[nH]c2ccccc12)C(=O)N[C@H](C(=O)N[C@@H](Cc1c[nH]c2ccccc12)C(=O)N[C@@H](CCCCN)C(=O)O)[C@@H](C)O)[C@@H](C)O)C(C)C)[C@@H](C)O)[C@@H](C)O,CLL patient PBMCs,"cell death, PI staining flow cytometry","90 min, room temperature, serum-free medium",0.7 µM
CCCC[C@@H]1NC(=O)COC[C@H]2CCCN2C(=O)[C@H](CCCCN)NC(=O)[C@H](CC(C)C)NC(=O)[C@H](CCCCN)NC(=O)[C@H](CC(C)C)NC(=O)[C@H](CCCCN)NC(=O)COC[C@H]2CCCN2C(=O)[C@H](Cc2c[nH]c3ccccc23)NC(=O)[C@H](C)NC(=O)[C@H](C(C)C)NC(=O)[C@H](C(C)C)NC1=O,NCI-H929,"viability, TO-PRO-3 staining, flow cytometry",,26.9 µM
COC1=C[C@@H]2[C@@H]3Cc4c(Br)cc(OC)c(OC(=O)c5ccnnc5)c4[C@]2(CCN3C)CC1=O,RAW264.7,"NO release, inhibitor, Griess",LPS-stimulated,53.4 µM
CNC(=O)c1cc(Oc2ccc(NC(=O)c3cc(-c4cccc(OC(=O)CCC(=O)OC5OC6OC7(C)CCC8C(C)CCC(C5C)C68OO7)c4)ccn3)cc2)ccn1 (stereo not drawn),Huh-7,"cell growth or viability, MTT",72 h,7.97 µM
COC(=O)C1CN1S(=O)(=O)c1ccccc1 (stereo not drawn),Caco-2,"cell growth or viability, MTT",48 h,110 µM
Cc1cc(C)c(-n2ccn(-c3c(C)cc(C)cc3C)c2=[Se])c(C)c1.[Cl][Ag],H157 spheroids,acid phosphatase,"72 h, 3D spheroid",8.7 ± 1.5 µM
Cc1nn(-c2ccccc2)c(O)c1C(c1ccc(F)cc1)c1c(C)nn(-c2ccccc2)c1O,Ishikawa,"cell growth or viability, MTT",48 h,38.2 µM
N.N.O=C([O][Pt]([Cl])([Cl])[O]C(=O)c1ccc(P(c2ccccc2)c2ccccc2)cc1)c1ccc(P(c2ccccc2)c2ccccc2)cc1.[Cl][Au].[Cl][Au],CAKI-1,"cell growth or viability, resazurin",72 h,3.21 µM
CC[C@H](C)[C@H](NC(=O)CNC(=O)[C@H](C)NC(=O)[C@H](CCC(=O)O)NC(=O)[C@@H]1CCCN1C(=O)CNC(=O)[C@H](C)NC(=O)[C@H](CCC(=O)O)NC(=O)[C@H](C)NC(=O)[C@H](CC(=O)O)NC(=O)[C@H](C)NC(=O)[C@H](CCC(=O)O)NC(=O)[C@H](C)NC(=O)[C@H](CCC(=O)O)NC(=O)[C@@H]1CCCN1C(=O)[C@@H](N)CCC(=O)O)C(=O)NCC(=O)N[C@@H](C)C(=O)N[C@H](C(=O)N[C@@H](CC(C)C)C(=O)N[C@@H](CCCCN)C(=O)N[C@H](C(=O)N[C@@H](CC(C)C)C(=O)N[C@H](C(=O)N[C@H](C(=O)NCC(=O)N[C@@H](CC(C)C)C(=O)N1CCC[C@H]1C(=O)N[C@@H](C)C(=O)N[C@@H](CC(C)C)C(=O)N[C@H](C(=O)N[C@@H](CO)C(=O)N[C@@H](Cc1c[nH]c2ccccc12)C(=O)N[C@H](C(=O)N[C@@H](CCCCN)C(=O)N[C@@H](CCCNC(=N)N)C(=O)N[C@@H](CCCCN)C(=O)N[C@@H](CCCNC(=N)N)C(=O)N[C@@H](CCC(N)=O)C(=O)N[C@@H](CCC(N)=O)C(N)=O)[C@@H](C)CC)[C@@H](C)CC)[C@@H](C)O)[C@@H](C)O)C(C)C)C(C)C,MCF7 vector control (FAP-negative),"cell viability, MTT",72 h,45.6 ± 5.6 µM
COC(=O)CC[C@@H](NC(=O)[C@@H](Cc1ccc(OP(=O)(O)O)cc1)NC(=O)[C@@H](Cc1ccccc1)NC(=O)[C@@H](Cc1ccccc1)NC(=O)Cc1ccc2ccccc2c1)C(=O)OC,OVCAR-3,cell growth or viability,,> 200 µM
F[P-](F)(F)(F)(F)F.OCP(CO)CO.OCP(CO)CO.OCP(CO)CO.OCP(CO)CO.[Cu+],DLD-1,"cell growth or viability, MTT",72 h,0.37 µM
NC(=NN=Cc1cccs1)[S][Ru+]([Cl])([P](c1ccccc1)(c1ccccc1)c1ccccc1)[P](c1ccccc1)(c1ccccc1)c1ccccc1.[Cl-],HCC70,"cell growth or viability, resazurin",96 h,6.26 µM
CC[C@H](C)[C@H](NC(=O)[C@H](C)NC(=O)[C@@H](N)Cc1c[nH]cn1)C(=O)N[C@@H](Cc1ccc(O)cc1)C(=O)N1CCC[C@H]1C(=O)N[C@@H](CCCNC(=N)N)C(=O)N[C@@H](Cc1c[nH]cn1)C(=O)N[C@@H](CO)C(=O)N[C@@H](Cc1c[nH]c2ccccc12)C(=O)N[C@H](C(=O)N[C@@H](Cc1c[nH]c2ccccc12)C(=O)N[C@@H](CCC(=O)O)C(=O)N[C@@H](CCCCN)C(=O)N[C@@H](CCCCN)C(=O)N[C@@H](CC(C)C)C(=O)N[C@@H](CCC(=O)O)C(=O)N[C@H](C(=O)N[C@@H](C)C(=O)N[C@H](C(=O)N[C@@H](CC(N)=O)C(=O)N[C@@H](CC(C)C)C(=O)N[C@@H](C)C(=O)N[C@@H](Cc1c[nH]c2ccccc12)C(=O)N[C@H](C(=O)N[C@@H](C)C(=O)NCC(=O)N[C@@H](CC(N)=O)C(=O)N[C@@H](CO)C(=O)N[C@@H](CC(N)=O)C(=O)N[C@@H](CCCCN)C(=O)N[C@@H](Cc1c[nH]c2ccccc12)C(=O)N[C@H](C(=O)N[C@@H](Cc1c[nH]c2ccccc12)C(=O)N[C@@H](CCCCN)C(=O)O)[C@@H](C)O)[C@@H](C)O)C(C)C)[C@@H](C)O)[C@@H](C)O,CLL patient PBMCs,"cell death, PI staining flow cytometry","90 min, room temperature, serum-free medium",1.7 µM
O=C1CC2(C1)C(=O)[O][Pt]1([Cl])([O]C(=O)C(F)(F)F)([NH][C@@H]3CCCC[C@H]3[NH]1)[O]C2=O,SGC-7901/CDDP cisplatin-resistant,"cell viability, MTT",48 h,97.5 ± 3.67 µM

# Repeated from above:
Structure (SMILES),cell line,assay,setting,IC50
Cc1cc(C)c(N2CCN(c3c(C)cc(C)cc3C)C2=[Se])c(C)c1.[Cl][Au],LoVo-OXP (oxaliplatin-resistant),MTT,72 h,2.5 ± 0.5 µM
Cc1cc(C)c(-n2c[n+](-c3c(C)cc(C)cc3C)c3c2-c2cccc4cccc-3c24)c(C)c1.[Cl][Pd-]([Cl])[CH2]C=Cc1ccccc1,PSN1,"cell growth or viability, MTT",72 h,5 µM
O=C(Cc1ccc2ccccc2c1)N[C@H](Cc1ccccc1)C(=O)N[C@H](Cc1ccccc1)C(=O)N[C@H](Cc1ccc(O)cc1)C(=O)N[C@H](Cc1ccc(OP(=O)(O)O)cc1)C(=O)O,SAOS-2,"cell growth or viability, MTT",,170 µg/mL
